# Measured values gathered from unrelated publications.
# Each numbered part is a random draw from the data of one study; scales do not carry over between parts.

# Block 1
# Target: Ras GTPase-activating protein-binding protein 1, RRM domain (G3BP1, Homo sapiens, UniProt Q13283)
# Sequence of UniProt Q13283 (whole entry, looked up): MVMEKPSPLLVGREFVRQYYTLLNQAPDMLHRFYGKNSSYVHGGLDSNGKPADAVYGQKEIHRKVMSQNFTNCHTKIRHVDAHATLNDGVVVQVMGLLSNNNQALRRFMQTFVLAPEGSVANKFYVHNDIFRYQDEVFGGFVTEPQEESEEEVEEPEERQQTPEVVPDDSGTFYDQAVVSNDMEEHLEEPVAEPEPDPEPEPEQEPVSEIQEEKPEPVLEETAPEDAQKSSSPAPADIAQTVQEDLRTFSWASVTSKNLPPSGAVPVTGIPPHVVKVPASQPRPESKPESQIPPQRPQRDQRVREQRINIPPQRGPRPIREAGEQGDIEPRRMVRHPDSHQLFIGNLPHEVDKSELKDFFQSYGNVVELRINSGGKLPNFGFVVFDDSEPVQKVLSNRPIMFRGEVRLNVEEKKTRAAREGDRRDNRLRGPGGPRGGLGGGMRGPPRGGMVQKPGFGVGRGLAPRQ
# Technique: RNA Bind-n-Seq
# Form: RNA
# Medium: in vitro
# Tested at: 1 µM
# Setting: whole 134-nt RNA, ends assumed
# With: 150 mM KCl
# Reference: input library
# Direction: higher = stronger binding
Oligonucleotide,log2 enrichment
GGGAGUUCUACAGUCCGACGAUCAGUUACGGUAGCAGUUCUCAGAGCAGCAGCUAUGGGCAGCCCCAGAGUGGGAGCUACAGCCAGCAGCCUAGCUAUGGUGGACAGCAGCAAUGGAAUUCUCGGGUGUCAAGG,-0.394
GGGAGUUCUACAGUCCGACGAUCUUCUCUAAGAGGAACUCCGGCGCGUCAGAGUAACAGAAGCGAGAGCACAGACAGUCUUGGGGGCUUGUCUCCCUCUGAAGUCACAGCCAUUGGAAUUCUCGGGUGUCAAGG,-0.0465
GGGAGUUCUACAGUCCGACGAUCGCAGGAAGUAAAAACAAAUGGAAAUGCUUCGGAUAGUGGCAGGGGUGGGGGUUGCUAAGGAAAAAAUGGGAUGGGAGUGGGUAAAGAGUUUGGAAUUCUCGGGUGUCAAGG,1.56
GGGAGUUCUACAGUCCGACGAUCCACAGACAACACGCACCCACACAGACACAGAGGGAAGGGGUUGGGAUGGGGACAGGGUGCACAGCAGGGCGGGUUAGGACCCCAGCCCCUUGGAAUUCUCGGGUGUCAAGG,-0.359
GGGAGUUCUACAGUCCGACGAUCCUCAAGUCCUGUGCUACACAUCGUAUGUACCGAAUCGGGGAGGGAGGGGAGGGGAAAGUAUUAUGUUACGCCGUUCGGAUCUGCACUUCCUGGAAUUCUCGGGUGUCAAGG,0.885
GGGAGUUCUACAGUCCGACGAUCUCCUCAAGUCCUGUGCUACACAUCGUAUGUACCGAAUCGGCGGCGGGGCGGGAAAGUAUUAUGUUACGCCGUUCGGAUCUGCACUUCCAGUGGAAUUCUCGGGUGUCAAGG,-0.219
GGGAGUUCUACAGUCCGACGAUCAAGUCCUGUGCUACACAUCGUAUGUACCGAAUCGGGUGGGAAAAAGGGUUUUUGGGAAAGUAUUAUGUUACGCCGUUCGGAUCUGCACUUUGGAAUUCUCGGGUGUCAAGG,0.624
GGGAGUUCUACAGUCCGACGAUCGUCCUGUGCUACACAUCGUAUGUACCGAAUCGGGGUUUUUUUGGGGUGGGGUUUGGGGAAAGUAUUAUGUUACGCCGUUCGGAUCUGCACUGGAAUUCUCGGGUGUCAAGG,0.916
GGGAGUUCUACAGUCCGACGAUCUGGCCCUGGUGGCAUGCGGGGAGGAAGAGGUGGCCUCAUGGAUCGUUGUGGUCCCGGUGGAAUGUUCAGAGGUGGCCGUGGUGGAGACAGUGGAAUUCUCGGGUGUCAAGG,0.7
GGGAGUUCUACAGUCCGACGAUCAAGUCCUGUGCUACACAUCGUAUGUACCGAAUCGGGGCCCGGGGCCCGGGGCCCGGGAAAGUAUUAUGUUACGCCGUUCGGAUCUGCACUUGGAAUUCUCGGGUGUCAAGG,-1.69
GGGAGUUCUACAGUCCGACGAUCCACAGACAACACGCACCCACACAGACACAGAGGGAAGGGGUUGGGAUGGGGACAGGGUGCACAACAGGGCGGGGUAGGACCCCAGCCCCUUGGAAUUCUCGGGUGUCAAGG,-0.0215
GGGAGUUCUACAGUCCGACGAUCUGUCCUGCAGGGUCGGACCGAUACCUGGAGAGCCGCGAUGCCUCUCGACUGAGUGGCCGGGACCCCUCCUCAUGGACAGUCGAGGAUGUGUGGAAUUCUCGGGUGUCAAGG,-0.778
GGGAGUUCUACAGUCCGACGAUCGUCCUGUGCUACACAUCGUAUGUACCGAAUCGGGGUGGGGAAAAAAAGGGGAAAGGGGAAAGUAUUAUGUUACGCCGUUCGGAUCUGCACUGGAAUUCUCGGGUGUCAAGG,1.28
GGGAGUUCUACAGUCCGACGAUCCACAGACAACACGCACCCACACAGACACAGGGGGAAGGGGUUGGGAUGGGGACAGGGUGCACAGCAGGGCGGGGUAGGACCCCAGCCCCUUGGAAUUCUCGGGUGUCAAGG,-0.0405

# Block 2
# Target: Interferon regulatory factor 3, full length, phosphomimetic (IRF3, Homo sapiens, UniProt Q14653, residues 1-427, S386D/S396D/S398D/S402D/T404D/S405D)
# Sequence of UniProt Q14653 (whole entry, unmodified, looked up): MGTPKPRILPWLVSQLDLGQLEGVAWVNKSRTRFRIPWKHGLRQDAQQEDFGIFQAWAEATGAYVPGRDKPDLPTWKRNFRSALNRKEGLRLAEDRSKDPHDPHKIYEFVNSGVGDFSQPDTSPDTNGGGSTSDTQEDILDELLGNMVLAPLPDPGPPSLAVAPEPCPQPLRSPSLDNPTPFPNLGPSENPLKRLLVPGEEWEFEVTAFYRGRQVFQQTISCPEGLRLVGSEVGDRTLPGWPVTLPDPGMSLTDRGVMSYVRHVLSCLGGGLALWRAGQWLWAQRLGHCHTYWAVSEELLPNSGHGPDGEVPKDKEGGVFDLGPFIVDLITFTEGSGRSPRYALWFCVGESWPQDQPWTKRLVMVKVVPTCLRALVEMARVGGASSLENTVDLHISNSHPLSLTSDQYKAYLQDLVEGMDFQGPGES
# Technique: protein-binding microarray
# Form: double-stranded DNA, one strand shown
# Medium: in vitro
# Tested at: 2540 nM top
# Setting: 60-bp whole probe
# With: salmon DNA 0.4 mg/ml
# Reference: random background probes
# Direction: higher = stronger binding
# Shared flanks, not repeated: GCCTAGCAC … GTCTTGATTCGCTTGACGCTGCTG
Oligonucleotide,fitted relative affinity [z-score]
GATGGACTGGGTATCGGGACGTGCTAG,-0.575
TTACATTTCAGTATCGATTAGTGCTAG,2.59
TCAGATTTCGGGTATCGATTAGTGCTA,1.9
GAGGATTTCAGTTCCGAGACGTGCTAG,2
GACGGTTTCCTACTGCTGAGGTGCTAG,5.48
TTAGGTATCGGTATCGTTTAGTGCTAG,4.94
TTAGGTCTCGGTCTCTGTTAGTGCTAG,1.07
TCAAAGTTCATGTTCAAACTGTGCTAG,-0.0952
TTAGGTATCTGGTATCGGTTAGTGCTA,1.69
GACGATATAGGGTTTCGAGACGTGCTA,0.667
TTAGGTCTCATTCTCCTTTAGTGCTAG,2.87
GACGGTTTCGCCTATCGGGACGTGCTA,2.93
CTGAGATGCATTCTGGGCCCGTGCTAG,-0.222
TTAGGTATCCTACTGCTTTCGTGCTAG,2.32
TCAATTTTCAGTATTACACTGTGCTAG,1.89
GACGATCTCAGAATCGAGACGTGCTAG,0.721
TCAAATCTTGAGTTAGAACTGTGCTAG,-0.143
TTAGGTCTCGTACTGCTTTAGTGCTAG,-0.0976
GACGGTTTCGCTATCGGGACGTGCTAG,5.95
TTAGGTCTGGGGTATCGGTTAGTGCTA,-0.0345
GCACTCTTCTTTTTTTTCTTGTGCTAG,1.85
TTAGGTTTCGGGACTGTGTTAGTGCTA,4.33
GACGGACTGGAGTATCGGGACGTGCTA,-0.267
GACGGGCTGCTTTTCCTGACGTGCTAG,-0.402
GACGTTTCCCTTTTCCTGACGTGCTAG,8.88

# Block 3
# Target: RNA binding protein fox-1 homolog 2, RRM domain, GST-SBP tag (RBFOX2, Homo sapiens, UniProt O43251-10, residues 100-194)
# Technique: RNA Bind-n-Seq
# Form: RNA
# Medium: in vitro
# Tested at: 365 nM
# Setting: natural RNA segment, single round, ends assumed
# Reference: no-protein control
# Direction: higher = stronger binding
# Residues (chain): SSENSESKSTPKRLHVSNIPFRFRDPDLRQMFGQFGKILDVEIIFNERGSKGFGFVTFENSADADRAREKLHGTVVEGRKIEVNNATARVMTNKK
Oligonucleotide,RBNS enrichment (R)
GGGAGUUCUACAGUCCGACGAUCAGUGGGAGCUCAUGGGUGACAGUAAAACUUAGGUGUCUCAGAACUUAACAUUUAGUAAAGUGAUGUAGAUCCAAUGUCAGGAAAGGAAGGACUGUGUUACUGUGCCUCCUUGGAAUUCUCGGGUGCCAA,0.367
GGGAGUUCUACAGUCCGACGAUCAGAAAGAGGGAGUUAGCAUCACCUAAAACCUGCACGUGAACAAGGGUUGACAUGAUACACUAUGGCCUUAGAAAAGGGCCAGGUGAAACCCCAAGCUAAUCACUGCGGUCUGGAAUUCUCGGGUGCCAA,7.95
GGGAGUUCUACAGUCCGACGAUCGGGGUUGUUUUGUUUUUUUAAUUUGAGGCUCAAUUCUUCAUUUAUACUUGAAAAAAACAAGGCCAUAUGUAAAGAAAAAAAAAAACCCUCUUUCAAUGCCUAAGUGUCUUUGGAAUUCUCGGGUGCCAA,0.502
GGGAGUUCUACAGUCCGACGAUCUGUUAGAAUCUGCUCAUGUGUGUGUCACCAUGCCAAGCCAUGCCAGCCACAGACUGAGGCUUCCGGGUGAGGAACACCCUGGGGCUACUAUGUUUGUAGGUCUCAUGUGCUGGAAUUCUCGGGUGCCAA,0.372
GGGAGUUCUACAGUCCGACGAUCCUUACUGGGUUUCCAAGCAGAGGAGUCACAUGAUUACAAUUGCCAGUAGAGUUGUUGUUUGGGGUACAAGAUGAGAAGAAAGAAAAACCUACAGCCUUUCUACAUUCUGAUGGAAUUCUCGGGUGCCAA,0.543
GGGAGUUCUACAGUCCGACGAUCUCCAAGGCAGAAGUGGCCCAUGAGUGGCCCCAGAGCAGAGGUGCCCCAGGCAGUGCAGCUCCCUGGUGGGUUGGUAGAGGGACCUCAGCUUAAGGAACUGCCCUGCCACUUGGAAUUCUCGGGUGCCAA,0.752
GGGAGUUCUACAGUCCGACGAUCAGUGAUUUCAAUUGCACCAUGACUUCUUCACUAAAACCACAAAGUCCUGCUUAAAACUAUGGAAAACCUAACCUGAUUAGAGCCUUGACUAUUUUGAAGAUUAAAUGCACUGGAAUUCUCGGGUGCCAA,0.738
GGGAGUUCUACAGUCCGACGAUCCACAGAGAAACCCUGUCUCAAAAAAACCAACCAAACAAAAACAAAAACAAAAUGUGUCCUACUUAAUUGGUAUAUGUGUUUUUCAAACAAUCAUUUGAGGGGUGUUUUGAUGGAAUUCUCGGGUGCCAA,0.635
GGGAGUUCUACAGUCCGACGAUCUGUCACACAACACUGAUGUGACUUUUAUAUGCUUUUUCUCAGAUCUGGUUUCUAAGAGUUUUGGGGGGCGGGGCUGUCACCACGUGCAGUAUCUCAAGAUAUUCAGGUGGUGGAAUUCUCGGGUGCCAA,0.304
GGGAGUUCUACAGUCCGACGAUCUUUCUGCGUUGCCCUCCAGAUCCUGAGGUGGGCCGUGAGACGACUUGCUUUAAACUCUGUUCAAUCCCCAGGCUUUCUGAGUCCGCUCUACCUUUUCUGGGUGAUCUUGUUGGAAUUCUCGGGUGCCAA,0.325
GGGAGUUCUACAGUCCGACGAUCUUUCAAGAACUUGUUUAAUAAAGCGAAAAACUCAACCAAAUGGUACAAAACCACAGUGUACCAUUAAAAUAUGCACUAAGUCUCUUUUUUACAAAGGCUGUAUUCAGCAAUGGAAUUCUCGGGUGCCAA,0.542
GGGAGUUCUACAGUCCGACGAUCAUGGAGAGGUGGGCAGGGGUUCCAGCUUCCCUUUGAUUUUUUGCUGCAGACUCAUCCUUUUUAAAUGAGACUUGUUUUCCCCUCUCUUUGAGUCAAGUCAAAUAUGUAGAUGGAAUUCUCGGGUGCCAA,0.624

# Block 4
# Target: Histone acetyltransferase KAT6A, winged helix 1, GST fusion (KAT6A, Homo sapiens, UniProt Q92794, residues 1-85)
# Technique: protein binding microarray
# Form: double-stranded DNA, one strand shown
# Medium: in vitro
# Tested at: not given
# Setting: 8-mer, flanks averaged, mean of 2 arrays, mostly near background
# Reference: not given
# Direction: higher = stronger binding
# Construct (chain): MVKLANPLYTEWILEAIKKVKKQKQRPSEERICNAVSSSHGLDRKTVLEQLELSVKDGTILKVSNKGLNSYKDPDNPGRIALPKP
Oligonucleotide,E-score
CCGTGCAC,0.246
AAGAATCC,-0.0773
ATTCTGAC,0.0106
ATGCGTAA,0.309
AGGTTATA,-0.167
CACGAAGA,-0.105
CTATTTGC,-0.124
GCCTGCCA,-0.132
GCTGAGAA,-0.259
ACCGATTG,0.00095
GCTCTCCC,0.13
CAGAAAAA,-0.215
AACTGAAA,-0.138
CCGACAGA,0.146
ACGTCGGG,0.283
GATGAACA,-0.224
GGTACAGA,0.044
AACTCCAT,-0.0621
ACACCACT,-0.175

# A few entries again (block 2):
Oligonucleotide,fitted relative affinity [z-score]
TTAGGTCTCATTCTCCTTTAGTGCTAG,2.87
GACGGTTTCGCCTATCGGGACGTGCTA,2.93
CTGAGATGCATTCTGGGCCCGTGCTAG,-0.222
TTAGGTATCCTACTGCTTTCGTGCTAG,2.32
TCAATTTTCAGTATTACACTGTGCTAG,1.89
GACGATCTCAGAATCGAGACGTGCTAG,0.721
TCAAATCTTGAGTTAGAACTGTGCTAG,-0.143
TTAGGTCTCGTACTGCTTTAGTGCTAG,-0.0976
